Experimental data from different studies.
Lines come from different studies, so protocols differ. Numbers after ± are the reported error. The star is where a group is joined.
Action: substrate
UniProt P38999, sequence (whole entry, unmodified, looked up): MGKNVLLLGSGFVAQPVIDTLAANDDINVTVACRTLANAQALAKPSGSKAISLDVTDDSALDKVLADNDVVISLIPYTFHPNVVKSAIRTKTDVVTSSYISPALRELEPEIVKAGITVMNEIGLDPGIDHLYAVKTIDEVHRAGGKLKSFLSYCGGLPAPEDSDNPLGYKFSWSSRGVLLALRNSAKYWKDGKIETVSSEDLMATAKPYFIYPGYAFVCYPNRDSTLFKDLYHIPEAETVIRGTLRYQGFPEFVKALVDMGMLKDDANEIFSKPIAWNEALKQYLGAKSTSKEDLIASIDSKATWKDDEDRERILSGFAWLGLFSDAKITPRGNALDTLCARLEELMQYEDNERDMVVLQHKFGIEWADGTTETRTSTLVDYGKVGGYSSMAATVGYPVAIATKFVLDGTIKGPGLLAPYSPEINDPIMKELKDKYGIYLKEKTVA
UniProt P55212, sequence (whole entry, looked up): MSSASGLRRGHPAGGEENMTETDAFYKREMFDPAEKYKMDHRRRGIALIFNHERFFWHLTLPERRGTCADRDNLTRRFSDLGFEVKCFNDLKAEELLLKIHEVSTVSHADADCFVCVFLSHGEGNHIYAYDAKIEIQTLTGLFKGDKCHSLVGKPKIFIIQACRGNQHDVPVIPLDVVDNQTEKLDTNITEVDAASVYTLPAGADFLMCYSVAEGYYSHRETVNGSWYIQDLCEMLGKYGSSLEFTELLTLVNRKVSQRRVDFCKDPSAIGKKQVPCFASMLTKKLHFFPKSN
UniProt P39458, sequence (whole entry, looked up): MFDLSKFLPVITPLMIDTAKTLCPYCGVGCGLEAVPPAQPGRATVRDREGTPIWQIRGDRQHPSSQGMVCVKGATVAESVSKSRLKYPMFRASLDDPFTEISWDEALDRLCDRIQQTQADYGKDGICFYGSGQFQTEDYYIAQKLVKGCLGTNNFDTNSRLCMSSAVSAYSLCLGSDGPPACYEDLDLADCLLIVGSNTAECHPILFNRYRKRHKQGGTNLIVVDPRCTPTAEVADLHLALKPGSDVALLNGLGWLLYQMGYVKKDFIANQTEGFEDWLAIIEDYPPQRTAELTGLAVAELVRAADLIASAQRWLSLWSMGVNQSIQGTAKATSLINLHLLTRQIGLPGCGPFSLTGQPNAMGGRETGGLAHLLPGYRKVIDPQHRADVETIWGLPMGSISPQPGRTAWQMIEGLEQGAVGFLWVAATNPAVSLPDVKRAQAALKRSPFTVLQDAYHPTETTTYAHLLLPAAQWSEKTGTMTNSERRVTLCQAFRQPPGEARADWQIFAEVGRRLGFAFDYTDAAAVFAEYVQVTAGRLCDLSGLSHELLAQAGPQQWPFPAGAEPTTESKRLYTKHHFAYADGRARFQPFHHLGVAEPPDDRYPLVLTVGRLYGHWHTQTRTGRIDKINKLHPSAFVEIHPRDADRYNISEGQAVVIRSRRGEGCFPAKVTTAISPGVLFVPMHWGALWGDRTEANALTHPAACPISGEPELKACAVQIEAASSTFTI
UniProt P12081, sequence (whole entry, unmodified, looked up): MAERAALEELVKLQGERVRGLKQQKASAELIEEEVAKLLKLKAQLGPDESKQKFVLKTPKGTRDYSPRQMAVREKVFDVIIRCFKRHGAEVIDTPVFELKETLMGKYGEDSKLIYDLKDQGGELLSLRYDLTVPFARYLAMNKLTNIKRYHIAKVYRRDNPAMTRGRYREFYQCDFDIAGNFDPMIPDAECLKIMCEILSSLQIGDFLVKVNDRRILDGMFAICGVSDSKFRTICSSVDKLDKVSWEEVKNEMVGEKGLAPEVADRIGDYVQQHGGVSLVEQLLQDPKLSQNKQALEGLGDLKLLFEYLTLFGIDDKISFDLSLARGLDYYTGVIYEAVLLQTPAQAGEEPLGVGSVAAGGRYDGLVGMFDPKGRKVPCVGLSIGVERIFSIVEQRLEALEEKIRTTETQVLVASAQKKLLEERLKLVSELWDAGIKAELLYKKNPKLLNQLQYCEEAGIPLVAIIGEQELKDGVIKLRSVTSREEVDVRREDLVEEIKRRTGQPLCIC

| Substance | target | test | conditions | Km |
| --- | --- | --- | --- | --- |
| N[C@@H](Cc1c[nH]cn1)C(=O)O | Histidine--tRNA ligase, cytoplasmic (HARS1, Homo sapiens, UniProt P12081, S356N) |  | pH 7.5, with: 10 mM ATP, 5 µM tRNAHis | 10.8 ± 9.1 µM |
| Nc1c(N=Nc2ccc(S(=O)(=O)CCOS(=O)(=O)O)cc2)c(S(=O)(=O)O)cc2cc(S(=O)(=O)O)c(N=Nc3ccc(S(=O)(=O)CCOS(=O)(=O)O)cc3)c(O)c12 | ancestral dye-decolorizing peroxidase | peroxidase activity, steady-state kinetics | 25 °C, pH 3.0 ABTS, 4.0 others | 13 µM |
| Nc1ncnc2c1ncn2[C@@H]1O[C@H](COP(=O)(O)OP(=O)(O)OP(=O)(O)O)[C@@H](O)[C@H]1O | kinesin-II homo-11, Caenorhabditis elegans | microtubule gliding velocity |  | 51 µM |
| isocitrate | Isocitrate dehydrogenase (Acetivibrio thermocellus, UniProt A3DC45) |  | pH 8.0, 25 °C, with: NADP+ saturating | 10 µM |
| CC(=O)Oc1cc2c(cc1F)C1(OC(=O)c3ccccc31)c1cc(F)c(OC(C)=O)cc1O2 | porcine liver esterase | fluorogenic hydrolysis | pH 7.4, 23 °C, DMSO up to 1.5% | 5.3 µM |
| O=C(Nc1ccc2c(O)c(N=Nc3ccc(N=Nc4ccc(S(=O)(=O)O)cc4)cc3S(=O)(=O)O)c(S(=O)(=O)O)cc2c1)Nc1ccc2c(O)c(N=Nc3ccc(N=Nc4ccc(S(=O)(=O)O)cc4)cc3S(=O)(=O)O)c(S(=O)(=O)O)cc2c1 | ancestral dye-decolorizing peroxidase | peroxidase activity, steady-state kinetics | 25 °C, pH 3.0 ABTS, 4.0 others | 2.9 µM |
| N[C@@H](CCC(=O)O)C(=O)O | Saccharopine dehydrogenase [NADP(+), L-glutamate-forming], D126A (LYS9, Saccharomyces cerevisiae, UniProt P38999) | enzyme activity | pH 7.0, 25 °C, D126A mutant, with: NADPH and AASA saturating | 1500 ± 100 µM |
| N[C@@H](Cc1ccccc1)C(=O)O | phenylalanine/tyrosine ammonia-lyase Cutaneotrichosporon cutaneum | trans-cinnamate absorbance | pH 7.5, 30 °C, 10% glycerol | 6100 ± 600 µM |
| Ac-LDEVD-pNA (N-acetyl, C-pNA; pNA = O=[N+]([O-])c1ccc(N*)cc1) | Caspase-6 (CASP6, Homo sapiens, UniProt P55212) | colorimetric p-nitroanilide release | pH 7.25 | 440 ± 40 µM |
| Nc1c(S(=O)(=O)O)cc(Nc2cccc(S(=O)(=O)CCOS(=O)(=O)O)c2)c2c1C(=O)c1ccccc1C2=O | ancestral dye-decolorizing peroxidase | peroxidase activity, steady-state kinetics | 25 °C, pH 3.0 ABTS, 4.0 others | 42 µM |
| O=[N+]([O-])O | Nitrate reductase (narB, Synechococcus elongatus, UniProt P39458) |  | with: reduced Synechocystis ferredoxin, saturating | 6 ± 1 µM |
| CC(=O)OCOc1cc2c(cc1F)C1(OC(=O)c3ccccc31)c1cc(F)c(OCOC(C)=O)cc1O2 | porcine liver esterase | fluorogenic hydrolysis | pH 7.4, 23 °C, DMSO up to 1.5% | 4.9 µM |
